Measured values of several laboratories.
Numbered parts are unrelated; each lists some results of a single study.

Sample 1
Target: Sox-I, HMG box (Salpingoeca helianthica)
Technique: Spec-seq
Molecule type: double-stranded DNA, one strand shown
Sample: in vitro
Concentration: not given
Notes: whole probe, mean of replicates
Baseline: not given
Reading: lower = stronger binding
Measurement: relative binding energy
All sequences stand within: GAGTCGTCTCGTCAGCAC … CCGTAGAGCACTCAGGTC
Construct (chain): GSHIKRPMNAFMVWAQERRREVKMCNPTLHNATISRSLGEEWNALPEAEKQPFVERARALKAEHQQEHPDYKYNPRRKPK
CATGGGT: 1.05 ln ratio
TCCTGTT: -0.781 ln ratio
CATCGGT: 0.981 ln ratio
CATCAAA: 0.524 ln ratio
GAGCGTT: 1.01 ln ratio
GGGAGTT: 0.835 ln ratio
CATACCC: 0.67 ln ratio
CGGAGTT: 1.01 ln ratio
CGCCGTT: 0.708 ln ratio
AAGCGTT: 0.185 ln ratio
CATTACA: 0.391 ln ratio
CATGGGA: 1.01 ln ratio
CGGGGTT: 1.2 ln ratio
CATCCCG: 1.17 ln ratio
GTTTGTT: -0.898 ln ratio
TGGGGTT: 0.946 ln ratio
CATAGGG: -0.0376 ln ratio
CATGCTG: 0.531 ln ratio
ACCGGTT: 0.00363 ln ratio
CTCGGTT: 0.894 ln ratio
CATCGCC: 1.08 ln ratio

Sample 2
Target: PABPC1L2, full length, GST fusion (mouse, UniProt A0ABA7IW68)
Technique: RNAcompete
Molecule type: RNA
Sample: in vitro
Concentration: 20 nM
Notes: 7-mer, probes averaged, single round
Baseline: mean of 7-mers
Reading: higher = stronger binding
Measurement: 7-mer Z-score
Target sequence (chain): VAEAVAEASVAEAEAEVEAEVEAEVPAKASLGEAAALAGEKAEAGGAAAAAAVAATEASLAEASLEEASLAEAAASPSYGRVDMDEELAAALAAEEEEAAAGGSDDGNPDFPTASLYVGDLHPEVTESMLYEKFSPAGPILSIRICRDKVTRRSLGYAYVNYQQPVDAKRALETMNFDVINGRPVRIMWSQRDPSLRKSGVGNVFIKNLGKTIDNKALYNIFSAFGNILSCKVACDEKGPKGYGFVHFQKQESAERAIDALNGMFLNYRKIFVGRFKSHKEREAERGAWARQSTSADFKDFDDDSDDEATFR
AAAUGCA: 1.16
GUCGAGG: 0.046
CAUGUUU: -0.427
AGAGGAA: 0.278
CUCACCC: -0.431
AAGCACC: -0.0101
UAUGUCC: -0.304
CUACGCA: -0.119
CGACAAA: 0.802
ACAAAUA: 1.51
GAUGCUG: -0.209
UUUUGGA: 0.0551
GGCGCCG: -0.284
AGGUUGU: -0.3
GCGGGUG: 0.274
ACUAAGG: 0.173
CAUAAGU: -0.103
GCAAGAU: 0.142
GAGUUUU: -0.374
ACUCUAC: -0.211
UGUUUGC: -0.407
UUACCCC: -0.443
GCGUCCG: -0.0446
UUAUUCA: -0.173

Sample 3
Target: Prothrombin, mature alpha-thrombin (F2, Homo sapiens, UniProt P00734)
Technique: aptamer microarray, sandwich
Molecule type: DNA with 2'F-ANA
Sample: in vitro
Concentration: 200 nM
Notes: whole 15-mer aptamer, many near background
With: Cy3 exosite-II aptamer, 400 nM
Reading: higher = stronger binding
Measurement: mean fluorescence intensity
Oligonucleotide: GGTTGGTGTGGTTGG
2'F-ANA at 2 3 4 5 6 7 10 11 12 14 15: 62.6 a.u.
2'F-ANA at 3 7 9 10 11 12 15: 574 a.u.
2'F-ANA at 2 5 7 8 9 11 13: 66.8 a.u.
2'F-ANA at 1 2 3 8 11: 232 a.u.
2'F-ANA at 5 6 9 15: 69.3 a.u.
2'F-ANA at 2 3 4 8 11 12: 869 a.u.
2'F-ANA at 1 3 5 7 13 14 15: 52 a.u.
2'F-ANA at 1 2 5 9 13 14: 45.8 a.u.
2'F-ANA at 4 5 9 10 11 12 13 15: 50.1 a.u.
2'F-ANA at 2 3 4 5 7 8 9 10 13 14: 51.7 a.u.
2'F-ANA at 2 4 6 7 9 11 12 13 15: 223 a.u.
2'F-ANA at 4 5 7 8 12 15: 162 a.u.
2'F-ANA at 2 3 7 8 10 11 12: 425 a.u.
2'F-ANA at 1 2 3 4 6 12 15: 331 a.u.
2'F-ANA at 4 8 12 14 15: 133 a.u.
2'F-ANA at 1 4 5 8 12 13 15: 112 a.u.

Sample 4
Target: Histone acetyltransferase KAT6A, winged helix 1, GST fusion (KAT6A, Homo sapiens, UniProt Q92794, residues 1-85)
Technique: protein binding microarray
Molecule type: double-stranded DNA, one strand shown
Sample: in vitro
Concentration: not given
Notes: 8-mer, flanks averaged, mean of 2 arrays, mostly near background
Baseline: not given
Reading: higher = stronger binding
Measurement: E-score
Residues (chain): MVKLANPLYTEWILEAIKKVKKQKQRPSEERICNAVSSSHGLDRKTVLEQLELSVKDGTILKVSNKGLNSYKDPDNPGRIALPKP
AGATAATC: -0.0249
CGAAGCCC: 0.0384
ATGGACGC: 0.143
GTCCCTAA: -0.116
GTCATAGA: -0.0323
CTATATTA: -0.0213
GAACCGTC: 0.0629
AGACATTG: 0.0467
CAGCAGAG: -0.212
CCTGTGGC: -0.171
CGTCTTGC: 0.0972
ATCATAAG: -0.166
CATTATTA: 0.0615
CGGCGAGA: 0.312
CATCGGAG: -0.0544
AAACCTTC: -0.199
AGTCATCC: -0.0717
AGCGTATG: 0.145
CGCGACAC: 0.211
ATAGAGAG: -0.172
AATATGGA: -0.135
AATTAATT: -0.0361
AATACGGT: 0.152
ACTTATTA: -0.13
CCATTCGC: 0.0419

Sample 5
Target: Ras GTPase-activating protein-binding protein 1, full length (G3BP1, Homo sapiens, UniProt Q13283)
Chain of UniProt Q13283 (whole entry, looked up): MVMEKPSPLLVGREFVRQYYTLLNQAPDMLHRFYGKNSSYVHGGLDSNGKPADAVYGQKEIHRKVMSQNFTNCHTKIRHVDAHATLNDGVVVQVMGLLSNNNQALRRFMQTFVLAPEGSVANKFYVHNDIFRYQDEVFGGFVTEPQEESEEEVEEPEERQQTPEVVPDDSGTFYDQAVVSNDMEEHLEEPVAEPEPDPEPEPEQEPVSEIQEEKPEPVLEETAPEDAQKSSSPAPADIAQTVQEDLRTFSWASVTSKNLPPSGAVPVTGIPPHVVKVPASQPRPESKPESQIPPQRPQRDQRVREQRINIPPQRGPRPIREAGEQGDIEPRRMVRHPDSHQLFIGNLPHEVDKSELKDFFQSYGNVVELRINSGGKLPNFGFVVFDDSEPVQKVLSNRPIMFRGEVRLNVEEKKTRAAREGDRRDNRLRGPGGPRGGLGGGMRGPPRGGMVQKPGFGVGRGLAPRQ
Technique: RNA Bind-n-Seq
Molecule type: RNA
Sample: in vitro
Concentration: 200 nM
Notes: whole 134-nt RNA, ends assumed
With: 150 mM LiCl
Baseline: input library
Reading: higher = stronger binding
Measurement: log2 enrichment
Each molecule: 7-deaza-guanosine replaces G
All sequences stand within: GGGAGUUCUACAGUCCGACGAUC … UGGAAUUCUCGGGUGUCAAGG
AAGUCCUGUGCUACACAUCGUAUGUACCGAAUCGGCCCCGGCCCCGGGCCCCGGGGAAAGUAUUAUGUUACGCCGUUCGGAUCUGCACUU: -0.275
UGGCCCUGGUGGCAUGCGGGGAGGAAGAGGUGGCCUCAUGGAUCGUGGUGGUCCCGGUGGAAUGUUCAGAGUUGGCCGUGGUGGAGACAG: -0.0403
UCCUGUGCUACACAUCGUAUGUACCGAAUCAAACCCCCCCAAAUUUUUUUAAAUUUAAAAAAGUAUUAUGUUACGCCGUUCGGAUCUGCA: 1.42
CUGUGCUACACAUCGUAUGUACCGAAUCGGGGUUUUUUUGGGUUUUUUUGGGGUUUUUUUGGAAAGUAUUAUGUUACGCCGUUCGGAUCU: 1.63
GAGGGAGUUUGCAGAUACCUCAGGAUUCGUGACAAUGCCUUUAAAGAUCCAGGAGAGAUGUUCAGCUACUAGGAACUGCUAGCAAGUAUA: -0.774
CUCAAGUCCUGUGCUACACAUCGUAUGUACCGAAUCGGUUGGGGUUGGGUUGGGAAAGUAUUAUGUUACGCCGUUCGGAUCUGCACUUCC: 0.416
UGCUGCUUUCUGCCUUGGUGGCAGGCAGAGAACUGUCUCGUACUAGAAUUCAAGGAGGAAAGAAGAAGAAAUAAAAGAAGCUGCUCCAUU: -0.111
CCUGUGCUACACAUCGUAUGUACCGAAUCGGGGUUUUUGGGGUUUUUUUGGGGAAAGGGGAAAGUAUUAUGUUACGCCGUUCGGAUCUGC: 0.885
ACCAUGCAGGUGGGCAUCUUUGGGAAGUGGGGCAAGGGGGGGAUAGGGAGGGGGGUAACACUUUGGGAACAGUUGGUCCCAGGUCGUUUC: 0.324
CCAGGAAGUAAAAACAAAUGGAAAUGCUUCGGAUAGUGGCAGGGGUGGGGGUUGCUAAGGAAAGGGUGGGAUGGGAGUGGGUAAAGAGUU: 0.157
UCAAGUCCUGUGCUACACAUCGUAUGUACCGAAUCGGCCCGGGGCCCGGGCCCGGAAAGUAUUAUGUUACGCCGUUCGGAUCUGCACUUC: -0.892

Sample 6
Target: RNA binding protein fox-1 homolog 2, RRM domain, GST-SBP tag (RBFOX2, Homo sapiens, UniProt O43251-10, residues 100-194)
Technique: RNA Bind-n-Seq
Molecule type: RNA
Sample: in vitro
Concentration: 365 nM
Notes: natural RNA segment, single round, ends assumed
Baseline: no-protein control
Reading: higher = stronger binding
Measurement: RBNS enrichment (R)
All sequences stand within: GGGAGUUCUACAGUCCGACGAUC … UGGAAUUCUCGGGUGCCAA
Residues (chain): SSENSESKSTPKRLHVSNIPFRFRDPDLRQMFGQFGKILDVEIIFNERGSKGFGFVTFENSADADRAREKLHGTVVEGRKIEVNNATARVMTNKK
AAGUAAAAUAGCUUGGAUUCAAUCAUGUGACUUUUAAAUUGGCUCAGAAAGCAAUUUUGUAAUUUCAGAGAGUGUUUUGAGCCAUGGCCACGUUGUCAUUGUGAGUCUAU: 0.281
UGCUCUUGCCGCCAGCAUUGCACCAGCAGUCCAGAAUUCCUGCCUGACAACCCGUGUUUCCUUUAUUAAAAGUGAUUAGUACAACUGCUAGUUAUUUUCAACAAAUAAAG: 0.225
ACAUUGCACACACUGUAAGAAAUGCACUUUCCGAGGAAGGGGAUGGGGGAGCCCGGACACCCAGAGCUCCCCGAGUUGGGGGUGCCCGUCUGGAGCGCCCCCGUCAGCCC: 0.449
UAAGACAGGGCUGGCAGGAGCAGACUGCCUCAGCCCAUGUGCCCUGCCGGCCAGGGCGUGGGCUCCCCUCGGCUGUGGUGCCUCCUCUGGCCCCCCAGGUCCACGUCCUU: 0.262
CAUCUAAAACUGGCCCAGGACACUUGGUGUAUGCGUGACUUGGCUGUGGCUGUCUUUUUUAAUCCUUGUGUAAAGCAGCAAAAAAGACCUAAAGGGAAUUGUAAUUUGGU: 0.839
GGAGAGUAGGUUUCAGGAAACCGGUAGACUGUCAGCAGCUGCCUCAGAAACUGUUCACAAAAGUCAACUAGCUGGCUCAGUUUUGCUGGCUUUGUGUAGAUUUGUGUAGA: 0.235
GGUUGGACUGCUCAUGGAUUUGGUAGCUGUUUUAAAAAGGUAGCUGUGAUACAAGCCCCAGGACACCCCCACCCAAAGAGCCAAAGAAUAGUUCCCGCGACAUUCCGCCU: 0.201
GUUCCUGUGUCAUCUUCACAUCUAGCAGAGCACGGAUGUGUUUGCAUGCUGUGCUCUUGGAGCUUGUCCUGUCUUCUGGAAGCCCUGGACAAGGCGUGUGAAGGCUUCCC: 1.06
UAUCUAGAAGACCCUCCAAAAAAGGAACCACAUAAGCACACAAGAAAAGAGUGCUAUGAUGUUCUUAGCAUUUGCUAUCAUGCCUAUUUUUAUCUAGAUUUUUAAAUGUA: 0.58
AUGUGAAAUGGUUAUUUAUACUUAUAGAAAGUUUGUGAAAUUUGCACAGUUGUCUUUCAAAGGAUAGGAUCUAUCUUUUUUGGACUUCAGAUUGUUUUAAAGAACUGUAA: 0.432
GCCAGCUUAUUUUUCUGGUACUUGUAUUUUCACAUGUUAAAUGAUCUUUAUAUAUGUUGAAUUAACAAAUAUUUUGAGUUUCUGAGAAAAAACAAAACAUAUUAAUGGUA: 0.462
AGUCAUUGGCUCUAUCUGCAUUUUUCUGUCAUUCUCUUCAUUUGUUUUAAGGUGGAAAAUUUUCUUACAGUUGAUGCAAAGUAUCAACUACUUUACCCUACCUUCUCCCC: 3.45

Repeated from above (sample 1):
TGGGGTT: 0.946 ln ratio
CGCCGTT: 0.708 ln ratio
GTTTGTT: -0.898 ln ratio
GGGAGTT: 0.835 ln ratio
CATCAAA: 0.524 ln ratio
CATACCC: 0.67 ln ratio
CATAGGG: -0.0376 ln ratio
GAGCGTT: 1.01 ln ratio
CATGCTG: 0.531 ln ratio
CTCGGTT: 0.894 ln ratio
